{"data": "Published values pooled from the literature", "note": "Numbered parts are unrelated; each lists some results of a single study. Substitutions count along the parent as printed."}
{"data": "Sample 1", "target": "CCNB1, cyclin fold, Cln2 fusion (human)", "technique": "yeast growth competition, sequencing", "sample": "yeast", "setting": "weak parent motif", "relative to": "not given", "direction": "higher = stronger binding", "starting sequence": "RB1 docking peptide (human); PKPLKKLRFDIEG"}
{"Substitution": "PKPLKKLRHDIEG [F9H]", "normalised enrichment score": 0.557}
{"Substitution": "EKPLKKLRFDIEG [P1E]", "normalised enrichment score": 0.831}
{"Substitution": "SKPLKKLRFDIEG [P1S]", "normalised enrichment score": 0.11}
{"Substitution": "PLPLKKLRFDIEG [K2L]", "normalised enrichment score": 0.949}
{"Substitution": "PKPLKKLRFDIEF [G13F]", "normalised enrichment score": 0.0402}
{"Substitution": "PKRLKKLRFDIEG [P3R]", "normalised enrichment score": 1.17}
{"Substitution": "PKPLKKLRFDIEW [G13W]", "normalised enrichment score": 0.658}
{"Substitution": "PKPLKKLRFDPEG [I11P]", "normalised enrichment score": 0.94}
{"Substitution": "YKPLKKLRFDIEG [P1Y]", "normalised enrichment score": -0.237}
{"Substitution": "PKPPKKLRFDIEG [L4P]", "normalised enrichment score": 0.38}
{"Substitution": "PKPLKKLRFRIEG [D10R]", "normalised enrichment score": 1.21}
{"data": "Sample 2", "target": "ABI1, truncated, D143A, DHFR fusion (Arabidopsis thaliana)", "technique": "DHFR PCA, deep sequencing", "sample": "yeast", "setting": "methotrexate growth selection, single substitutions", "with": "(+)-ABA 710 µM", "relative to": "wild-type fitted maximum", "direction": "higher = stronger binding", "starting sequence": "PYL1, truncated, DHFR fusion (Arabidopsis thaliana); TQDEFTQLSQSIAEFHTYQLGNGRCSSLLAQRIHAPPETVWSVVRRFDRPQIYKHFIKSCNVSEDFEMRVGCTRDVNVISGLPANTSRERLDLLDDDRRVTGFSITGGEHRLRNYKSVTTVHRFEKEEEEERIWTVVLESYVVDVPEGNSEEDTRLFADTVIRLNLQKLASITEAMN; partner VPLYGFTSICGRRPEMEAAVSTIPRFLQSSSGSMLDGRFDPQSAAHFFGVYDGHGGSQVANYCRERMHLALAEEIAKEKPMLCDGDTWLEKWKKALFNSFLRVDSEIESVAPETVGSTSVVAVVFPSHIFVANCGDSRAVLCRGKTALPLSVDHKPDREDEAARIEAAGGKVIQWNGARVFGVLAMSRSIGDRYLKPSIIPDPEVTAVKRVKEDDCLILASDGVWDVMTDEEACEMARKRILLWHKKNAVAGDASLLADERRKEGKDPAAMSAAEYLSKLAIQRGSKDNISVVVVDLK"}
{"Substitution": "E125K", "relative binding score [%]": 113}
{"Substitution": "V43D", "relative binding score [%]": -2.92}
{"Substitution": "L29W", "relative binding score [%]": 63.5}
{"Substitution": "N85M", "relative binding score [%]": 104}
{"Substitution": "E174T", "relative binding score [%]": 94.2}
{"Substitution": "F56M", "relative binding score [%]": 98.2}
{"data": "Sample 3", "target": "Interferon regulatory factor 5, full length, phosphomimetic (IRF5, Homo sapiens, UniProt Q13568-2, residues 1-514, K96S/S451D/S453D/S456D/S462D)", "technique": "protein-binding microarray", "form": "double-stranded DNA, one strand shown", "sample": "in vitro", "concentration": "250 nM", "setting": "60-bp whole probe", "with": "salmon DNA 0.4 mg/ml", "relative to": "random background probes", "direction": "higher = stronger binding", "all sequences stand within": "GCCTAGCAC … GTCTTGATTCGCTTGACGCTGCTG"}
{"Strand": "TCAGTCTTCCCCATCTTACTGTGCTAG", "log fluorescence": "0.151 z-score"}
{"Strand": "TTTGATATCAGTATCGATTAGTGCTAG", "log fluorescence": "8.37 z-score"}
{"Strand": "GACGGTTTGGGGACTGGGGACGTGCTA", "log fluorescence": "-0.0308 z-score"}
{"Strand": "ATAGGTATCCTTATCCTTTAGTGCTAG", "log fluorescence": "0.325 z-score"}
{"Strand": "TTAGGACTGGGTTTCGGTTTGTGCTAG", "log fluorescence": "7.85 z-score"}
{"Strand": "CACGGACTGGACACTGGGGACGTGCTA", "log fluorescence": "-0.609 z-score"}
{"Strand": "TTACGTATCGGTATCGGTTAGTGCTAG", "log fluorescence": "10 z-score"}
{"data": "Single results of other studies"}
{"Substance": "PhoQ, residues 284 288 289 292 302 303 SMMNNA", "target": "PhoP, residues 12 14 15 18 19 SEGLL (Escherichia coli, UniProt P23836)", "test": "Sort-seq, item: YFP reporter", "test system": "E. coli", "setting": "PhoQ-PhoP variant library, with: 10 µM Mg2+", "scale": "relative to: high Mg2+ state, higher = stronger signaling", "endpoint": "fold induction", "value": 16.6}
{"note": "Some of these lines once more (sample 1):"}
{"Substitution": "EKPLKKLRFDIEG [P1E]", "normalised enrichment score": 0.831}
{"Substitution": "SKPLKKLRFDIEG [P1S]", "normalised enrichment score": 0.11}
{"Substitution": "PLPLKKLRFDIEG [K2L]", "normalised enrichment score": 0.949}
{"Substitution": "PKPLKKLRFDIEF [G13F]", "normalised enrichment score": 0.0402}
